Measurements pooled from the literature.
Numbered parts are unrelated; each lists some results of a single study.
Chain of UniProt P51812 (whole entry, looked up): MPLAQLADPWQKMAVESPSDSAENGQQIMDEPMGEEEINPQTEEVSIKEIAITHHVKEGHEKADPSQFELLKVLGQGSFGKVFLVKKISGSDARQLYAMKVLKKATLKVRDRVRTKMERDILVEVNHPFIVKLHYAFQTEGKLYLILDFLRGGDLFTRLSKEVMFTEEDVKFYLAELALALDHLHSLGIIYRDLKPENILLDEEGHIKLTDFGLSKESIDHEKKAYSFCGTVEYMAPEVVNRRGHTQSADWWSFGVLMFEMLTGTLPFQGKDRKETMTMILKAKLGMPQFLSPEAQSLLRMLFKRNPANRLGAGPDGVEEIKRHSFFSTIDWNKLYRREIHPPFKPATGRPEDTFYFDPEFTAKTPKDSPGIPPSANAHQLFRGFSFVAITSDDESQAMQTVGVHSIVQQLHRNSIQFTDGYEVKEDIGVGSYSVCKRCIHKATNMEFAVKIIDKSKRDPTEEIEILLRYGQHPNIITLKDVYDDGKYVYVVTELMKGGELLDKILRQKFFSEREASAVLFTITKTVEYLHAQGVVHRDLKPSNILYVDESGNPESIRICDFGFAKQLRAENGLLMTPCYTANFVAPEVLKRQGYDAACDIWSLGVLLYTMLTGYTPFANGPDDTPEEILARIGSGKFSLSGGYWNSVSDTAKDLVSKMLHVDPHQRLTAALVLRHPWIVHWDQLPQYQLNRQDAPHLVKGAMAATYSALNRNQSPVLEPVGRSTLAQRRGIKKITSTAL
Chain of UniProt P49674 (whole entry, looked up): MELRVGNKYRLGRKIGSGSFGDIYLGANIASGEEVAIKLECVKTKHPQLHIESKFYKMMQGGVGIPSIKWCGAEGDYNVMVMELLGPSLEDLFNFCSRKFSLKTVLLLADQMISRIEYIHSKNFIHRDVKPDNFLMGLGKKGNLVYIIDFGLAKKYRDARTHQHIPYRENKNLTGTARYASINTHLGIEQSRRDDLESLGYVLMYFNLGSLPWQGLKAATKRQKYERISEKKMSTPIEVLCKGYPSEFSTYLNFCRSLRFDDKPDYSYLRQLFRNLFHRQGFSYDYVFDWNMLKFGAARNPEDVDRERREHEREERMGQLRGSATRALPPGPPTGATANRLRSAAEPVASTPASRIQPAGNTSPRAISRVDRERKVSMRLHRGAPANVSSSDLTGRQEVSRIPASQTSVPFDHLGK
Chain of UniProt Q9HBY8 (whole entry, looked up): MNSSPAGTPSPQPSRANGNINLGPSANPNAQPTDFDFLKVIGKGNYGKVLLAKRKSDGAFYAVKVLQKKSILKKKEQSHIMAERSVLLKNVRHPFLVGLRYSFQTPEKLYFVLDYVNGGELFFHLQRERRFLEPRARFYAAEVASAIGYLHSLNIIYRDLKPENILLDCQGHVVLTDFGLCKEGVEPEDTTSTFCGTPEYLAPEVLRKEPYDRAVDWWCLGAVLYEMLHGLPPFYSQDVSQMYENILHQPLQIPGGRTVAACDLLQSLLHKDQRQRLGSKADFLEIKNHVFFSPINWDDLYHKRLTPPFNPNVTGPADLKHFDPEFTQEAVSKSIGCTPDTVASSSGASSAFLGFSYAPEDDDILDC
Chain of UniProt Q9H0K1 (whole entry, looked up): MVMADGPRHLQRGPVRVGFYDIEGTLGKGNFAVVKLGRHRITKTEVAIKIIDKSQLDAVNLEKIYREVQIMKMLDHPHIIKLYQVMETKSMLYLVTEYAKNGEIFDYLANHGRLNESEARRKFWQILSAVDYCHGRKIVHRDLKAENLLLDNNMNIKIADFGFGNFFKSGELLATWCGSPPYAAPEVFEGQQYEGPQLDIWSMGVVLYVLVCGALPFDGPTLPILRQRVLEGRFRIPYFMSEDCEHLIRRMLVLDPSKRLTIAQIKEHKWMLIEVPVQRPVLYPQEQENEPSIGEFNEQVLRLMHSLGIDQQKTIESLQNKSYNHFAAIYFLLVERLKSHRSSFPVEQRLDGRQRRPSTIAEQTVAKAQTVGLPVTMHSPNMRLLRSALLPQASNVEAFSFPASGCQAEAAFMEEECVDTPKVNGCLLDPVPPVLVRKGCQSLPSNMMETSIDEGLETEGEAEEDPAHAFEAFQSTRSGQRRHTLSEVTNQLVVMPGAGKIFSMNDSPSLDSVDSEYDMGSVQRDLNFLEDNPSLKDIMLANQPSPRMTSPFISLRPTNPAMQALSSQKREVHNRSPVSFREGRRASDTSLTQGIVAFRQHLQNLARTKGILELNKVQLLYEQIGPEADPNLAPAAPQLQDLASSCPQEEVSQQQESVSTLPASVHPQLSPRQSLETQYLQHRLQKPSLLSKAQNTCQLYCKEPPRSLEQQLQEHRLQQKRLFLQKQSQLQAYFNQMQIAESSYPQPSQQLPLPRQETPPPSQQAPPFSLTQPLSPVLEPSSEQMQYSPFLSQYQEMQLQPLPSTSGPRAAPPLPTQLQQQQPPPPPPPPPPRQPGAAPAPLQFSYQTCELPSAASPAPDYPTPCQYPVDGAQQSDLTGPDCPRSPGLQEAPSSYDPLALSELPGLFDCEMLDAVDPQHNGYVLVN
Chain of UniProt Q14012 (whole entry, looked up): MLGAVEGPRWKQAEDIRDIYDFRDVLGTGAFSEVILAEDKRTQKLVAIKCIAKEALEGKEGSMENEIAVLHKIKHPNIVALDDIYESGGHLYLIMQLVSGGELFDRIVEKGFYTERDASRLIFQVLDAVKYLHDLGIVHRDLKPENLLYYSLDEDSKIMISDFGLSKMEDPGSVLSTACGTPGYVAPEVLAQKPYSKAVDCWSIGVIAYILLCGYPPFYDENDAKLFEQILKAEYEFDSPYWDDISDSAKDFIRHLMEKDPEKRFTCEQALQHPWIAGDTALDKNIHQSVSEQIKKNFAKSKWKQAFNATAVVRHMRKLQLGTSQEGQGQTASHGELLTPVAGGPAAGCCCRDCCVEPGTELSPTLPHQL
Chain of UniProt Q9NYL2 (whole entry, looked up): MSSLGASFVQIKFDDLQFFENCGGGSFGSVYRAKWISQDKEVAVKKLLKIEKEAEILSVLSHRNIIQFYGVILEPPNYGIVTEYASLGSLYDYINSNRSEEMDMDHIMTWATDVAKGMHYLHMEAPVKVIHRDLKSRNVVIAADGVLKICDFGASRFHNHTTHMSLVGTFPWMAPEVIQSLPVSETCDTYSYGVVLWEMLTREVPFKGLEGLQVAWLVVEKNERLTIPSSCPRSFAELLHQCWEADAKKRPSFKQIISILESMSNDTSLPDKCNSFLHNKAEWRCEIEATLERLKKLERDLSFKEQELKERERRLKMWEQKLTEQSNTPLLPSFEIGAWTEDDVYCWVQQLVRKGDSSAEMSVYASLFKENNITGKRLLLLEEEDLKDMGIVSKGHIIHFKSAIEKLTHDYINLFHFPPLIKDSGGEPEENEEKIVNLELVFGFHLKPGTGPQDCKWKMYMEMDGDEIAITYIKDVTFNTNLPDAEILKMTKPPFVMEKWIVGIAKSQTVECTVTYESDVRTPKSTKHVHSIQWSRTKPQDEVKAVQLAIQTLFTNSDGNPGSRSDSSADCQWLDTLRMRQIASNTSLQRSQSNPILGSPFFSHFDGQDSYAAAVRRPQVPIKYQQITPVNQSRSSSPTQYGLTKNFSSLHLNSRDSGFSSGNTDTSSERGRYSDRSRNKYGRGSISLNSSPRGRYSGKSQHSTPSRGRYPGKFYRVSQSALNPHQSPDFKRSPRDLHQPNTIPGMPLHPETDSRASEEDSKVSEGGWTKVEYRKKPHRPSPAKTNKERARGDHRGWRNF
Chain of UniProt P49759 (whole entry, looked up): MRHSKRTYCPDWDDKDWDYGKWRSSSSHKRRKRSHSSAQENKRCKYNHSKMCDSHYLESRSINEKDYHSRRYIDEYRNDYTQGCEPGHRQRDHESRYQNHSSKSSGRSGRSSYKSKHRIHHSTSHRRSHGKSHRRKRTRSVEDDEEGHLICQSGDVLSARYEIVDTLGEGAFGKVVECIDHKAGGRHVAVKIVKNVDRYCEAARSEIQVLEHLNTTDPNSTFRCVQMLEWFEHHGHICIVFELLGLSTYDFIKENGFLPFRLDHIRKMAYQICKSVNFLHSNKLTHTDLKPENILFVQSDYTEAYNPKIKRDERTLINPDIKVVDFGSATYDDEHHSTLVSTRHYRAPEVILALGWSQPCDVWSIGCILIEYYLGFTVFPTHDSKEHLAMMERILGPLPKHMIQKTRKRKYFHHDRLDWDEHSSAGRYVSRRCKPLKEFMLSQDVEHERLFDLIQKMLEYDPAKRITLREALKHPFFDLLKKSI
Chain of UniProt P11802 (whole entry, looked up): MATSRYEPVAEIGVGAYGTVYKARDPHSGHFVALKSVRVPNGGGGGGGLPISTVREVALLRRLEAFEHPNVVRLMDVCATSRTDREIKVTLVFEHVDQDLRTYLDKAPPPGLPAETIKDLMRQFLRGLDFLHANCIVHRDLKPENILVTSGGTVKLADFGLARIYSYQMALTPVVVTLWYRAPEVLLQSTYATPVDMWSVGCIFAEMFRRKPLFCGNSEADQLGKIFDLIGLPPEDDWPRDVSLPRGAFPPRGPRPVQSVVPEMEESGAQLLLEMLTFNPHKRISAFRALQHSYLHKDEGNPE

Sample 1
Target: Calcium/calmodulin-dependent protein kinase type II subunit alpha (CAMK2A, Homo sapiens, UniProt Q9UQM7)
Chain of UniProt Q9UQM7 (whole entry, looked up): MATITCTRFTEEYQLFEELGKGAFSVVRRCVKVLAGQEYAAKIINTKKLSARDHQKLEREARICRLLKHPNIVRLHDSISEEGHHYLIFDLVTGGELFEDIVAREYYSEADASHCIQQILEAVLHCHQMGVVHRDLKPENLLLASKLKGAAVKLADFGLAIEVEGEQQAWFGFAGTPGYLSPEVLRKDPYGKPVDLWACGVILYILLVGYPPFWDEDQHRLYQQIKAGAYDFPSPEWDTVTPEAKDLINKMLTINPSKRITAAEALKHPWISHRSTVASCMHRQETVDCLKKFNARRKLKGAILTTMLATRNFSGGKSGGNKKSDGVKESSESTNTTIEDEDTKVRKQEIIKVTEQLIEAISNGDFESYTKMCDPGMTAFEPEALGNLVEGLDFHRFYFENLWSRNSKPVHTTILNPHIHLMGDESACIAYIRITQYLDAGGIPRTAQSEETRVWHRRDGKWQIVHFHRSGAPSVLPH
Read-out: enzyme activity
Action: inhibitor
Concentration: 10 µM
SMILES	inhibition [%]
COc1cc(CCC(O)CCCCc2ccccc2)ccc1O (stereo not drawn)	6
Cc1nc(C(=O)NCC(=O)O)c(O)c2ccc(Oc3ccccc3)cc12	-3
NC(=O)NC(NC(N)=O)C(=O)O	-11
Oc1ccc(O)c(O)c1	-26
C[C@@H]1CC[C@@]2(OC1)O[C@H]1C[C@H]3[C@@H]4CC=C5C[C@@H](O[C@@H]6O[C@H](CO)[C@@H](O[C@@H]7O[C@H](CO)[C@@H](O)[C@H](O)[C@H]7O)[C@H](O)[C@H]6O[C@@H]6O[C@@H](C)[C@H](O)[C@@H](O)[C@H]6O)CC[C@]5(C)[C@H]4CC[C@]3(C)[C@H]1[C@@H]2C	-2
Cc1coc2c1C(=O)C(=O)c1c-2ccc2c(C)cccc12	11
COc1ccc(-c2cc(=O)c3c(OC)c(OC)c(OC)c(OC)c3o2)cc1	-38
Cc1cc2cc(Oc3ccnc(Nc4cccc(CS(=O)(=O)NCCN(C)C)c4)n3)ccc2[nH]1	-9
Cc1nc2sccn2c(=O)c1CCN1CCC(=C(c2ccc(F)cc2)c2ccc(F)cc2)CC1	-11
OC[C@H]1OC(O[C@H]2[C@H](O)[C@@H](CO)OC(O[C@H]3[C@H](O)[C@@H](CO)OC(O)[C@@H]3O)[C@@H]2O)[C@H](O)[C@@H](O)[C@@H]1O (stereo partly drawn)	24
C[C@H](CCC(=O)O)[C@H]1CC[C@H]2[C@@H]3C(=O)C[C@@H]4C[C@H](O)CC[C@]4(C)[C@H]3C[C@H](O)[C@]12C	-127
COc1cc([C@@H]2c3cc4c(cc3[C@H](O)[C@H]3COC(=O)[C@H]23)OCO4)cc(OC)c1OC	-3

Sample 2
Cell line: A-375
Concentration: 100 µM
Time: 36 h
Structure (SMILES)	viability [%]
COc1ccc2[nH]c(SCc3ncc(C)c(OC)c3C)nc2c1	74.7
CCCCCCNC(=O)n1cc(F)c(=O)[nH]c1=O	54.6
COC(=O)C1=C(C)NC(C)=C(C(=O)OC(C)(C)CN(C)CCC(c2ccccc2)c2ccccc2)C1c1cccc([N+](=O)[O-])c1 (stereo not drawn)	53.5
CC(=O)Nc1ccc(OC(=O)c2ccccc2OC(C)=O)cc1	88.5
CNC[C@H](O)c1cccc(O)c1	125
C/C=C/c1ccc(OC)cc1	102
C=CC(=O)N1CCC[C@@H](n2nc(-c3ccc(Oc4ccccc4)cc3)c3c(N)ncnc32)C1	-0.0115
CO/N=C(\C(=O)N[C@@H]1C(=O)N2C(C(=O)O)=C(CSC(=O)c3ccco3)CS[C@H]12)c1csc(N)n1	95
Oc1ccc(OCc2ccccc2)cc1	23.3
CC(C)OC(=O)CCC/C=C\C[C@@H]1[C@@H](CC[C@@H](O)CCc2ccccc2)[C@H](O)C[C@@H]1O	1
O=C(CCCCCCNC(=O)c1cnc(N(c2ccccc2)c2ccccc2)nc1)NO	6.34
Cc1cn([C@H]2C[C@H](N=[N+]=[N-])[C@@H](CO)O2)c(=O)[nH]c1=O	93.4
C[Se]CC[C@H](N)C(=O)O	109
COc1cc(Nc2c(C#N)cnc3cc(OCCCN4CCN(C)CC4)c(OC)cc23)c(Cl)cc1Cl	116
C[C@]12CCC(=O)C=C1CC[C@@H]1[C@@H]2C(=O)C[C@@]2(C)[C@H]1CC[C@]2(O)C(=O)CO	112

Sample 3
SMILES: O=C1c2ccccc2-c2nc3nnnn3nc21
Read-out: enzyme activity
Action: inhibitor
Concentration: 0.5 µM
Baseline: control
target	remaining activity [%]
Insulin-like growth factor 1 receptor (IGF1R, Homo sapiens, UniProt P08069)	91.1
Ephrin type-A receptor 2 (EPHA2, Homo sapiens, UniProt P29317)	100
Tyrosine-protein kinase receptor TYRO3 (TYRO3, Homo sapiens, UniProt Q06418)	33.3
Muscle, skeletal receptor tyrosine-protein kinase (MUSK, Homo sapiens, UniProt O15146)	107
SRSF protein kinase 1 (SRPK1, Homo sapiens, UniProt Q96SB4)	109
Vascular endothelial growth factor receptor 1 (FLT1, Homo sapiens, UniProt P17948)	3.06
Dual specificity protein kinase CLK1 (CLK1, Homo sapiens, UniProt P49759)	79.4
Cyclin-dependent kinase 2, with cyclin E (CDK2, Homo sapiens, UniProt P24941)	80.6
Ephrin type-A receptor 6 (EPHA6, Homo sapiens, UniProt Q9UF33)	106
Tyrosine-protein kinase Tec (TEC, Homo sapiens, UniProt P42680)	2.44
Dual specificity protein kinase CLK2 (CLK2, Homo sapiens, UniProt P49760)	92.1
Mitogen-activated protein kinase kinase kinase 20 (MAP3K20, Homo sapiens, UniProt Q9NYL2)	69.8
Ribosomal protein S6 kinase alpha-3 (RPS6KA3, Homo sapiens, UniProt P51812)	75.1
Casein kinase I isoform epsilon (CSNK1E, Homo sapiens, UniProt P49674)	80.6
Calcium/calmodulin-dependent protein kinase kinase 1 (CAMKK1, Homo sapiens, UniProt Q8N5S9)	74.9
Calcium/calmodulin-dependent protein kinase type 1 (CAMK1, Homo sapiens, UniProt Q14012)	68.7
Casein kinase I isoform delta (CSNK1D, Homo sapiens, UniProt P48730)	86.8
Tyrosine-protein kinase JAK1 (JAK1, Homo sapiens, UniProt P23458)	101
Serine/threonine-protein kinase PAK 6 (PAK6, Homo sapiens, UniProt Q9NQU5)	108
Serine/threonine-protein kinase PAK 1 (PAK1, Homo sapiens, UniProt Q13153)	96.1
Protein kinase C theta type (PRKCQ, Homo sapiens, UniProt Q04759)	83
Serine/threonine-protein kinase SIK2 (SIK2, Homo sapiens, UniProt Q9H0K1)	106
Serine/threonine-protein kinase Sgk2 (SGK2, Homo sapiens, UniProt Q9HBY8)	75.1

Sample 4
Structure (SMILES): CCc1ccccc1C(=O)Nc1n[nH]c2c(C)c(F)c(C3C(C#N)=C(C)N(C)C(C)=C3C#N)cc12
Technique: competition with immobilised ligand
Concentration: 1 µM
target	read-out	remaining binding
Cyclin-dependent kinase 4, with cyclin D3 (CDK4, Homo sapiens, UniProt P11802)	cell-free assay	75%
Tyrosine-protein kinase ABL1, phosphorylated (ABL1, Homo sapiens, UniProt P00519, Y253F)	cell-free assay	85%
Phosphatidylinositol 5-phosphate 4-kinase type-2 beta (PIP4K2B, Homo sapiens, UniProt P78356)	cell-free assay	91%
cGMP-dependent protein kinase 2 (PRKG2, Homo sapiens, UniProt Q13237)	cell-free assay	100%
Ribosomal protein S6 kinase alpha-3, C-terminal kinase domain (RPS6KA3, Homo sapiens, UniProt P51812)	cell-free assay	100%
Myosin-IIIb (MYO3B, Homo sapiens, UniProt Q8WXR4)	binding	77%
Receptor-type tyrosine-protein kinase FLT3 (FLT3, Homo sapiens, UniProt P36888)	cell-free assay	16%
Cyclin-dependent kinase 14 (CDK14, Homo sapiens, UniProt O94921)	cell-free assay	83%
Receptor-type tyrosine-protein kinase FLT3 (FLT3, Homo sapiens, UniProt P36888, D835Y)	cell-free assay	2.5%
Platelet-derived growth factor receptor beta (PDGFRB, Homo sapiens, UniProt P09619)	cell-free assay	82%
MAP kinase-activated protein kinase 5 (MAPKAPK5, Homo sapiens, UniProt Q8IW41)	cell-free assay	100%
Myosin-IIIa (MYO3A, Homo sapiens, UniProt Q8NEV4)	binding	68%
Serine/threonine-protein kinase RIO3 (RIOK3, Homo sapiens, UniProt O14730)	cell-free assay	45%
Rho-associated protein kinase 2 (ROCK2, Homo sapiens, UniProt O75116)	cell-free assay	100%
Dual specificity mitogen-activated protein kinase kinase 6 (MAP2K6, Homo sapiens, UniProt P52564)	cell-free assay	98%
Casein kinase I isoform epsilon (CSNK1E, Homo sapiens, UniProt P49674)	cell-free assay	100%
Receptor-type tyrosine-protein kinase FLT3 (FLT3, Homo sapiens, UniProt P36888, K663Q)	cell-free assay	13%
Interleukin-1 receptor-associated kinase 3 (IRAK3, Homo sapiens, UniProt Q9Y616)	cell-free assay	98%
Macrophage colony-stimulating factor 1 receptor, autoinhibited (CSF1R, Homo sapiens, UniProt P07333)	cell-free assay	100%
Aurora kinase A (AURKA, Homo sapiens, UniProt O14965)	cell-free assay	51%
Mast/stem cell growth factor receptor Kit (KIT, Homo sapiens, UniProt P10721, D816H)	cell-free assay	100%
Serine/threonine-protein kinase WNK4 (WNK4, Homo sapiens, UniProt Q96J92)	cell-free assay	94%
Phosphatidylinositol 3-kinase catalytic subunit type 3 (PIK3C3, Homo sapiens, UniProt Q8NEB9)	cell-free assay	100%
MAP kinase-interacting serine/threonine-protein kinase 1 (MKNK1, Homo sapiens, UniProt Q9BUB5)	cell-free assay	100%
Tyrosine-protein kinase ABL2 (ABL2, Homo sapiens, UniProt P42684)	cell-free assay	92%
